Measured values pooled from the literature.
Numbered parts are unrelated; each lists some results of a single study.

Series 1
Target: Sal-like protein 4, full length isoform A (SALL4, Homo sapiens, UniProt Q9UJQ4, residues 1-1053)
UniProt Q9UJQ4, sequence (whole entry, looked up): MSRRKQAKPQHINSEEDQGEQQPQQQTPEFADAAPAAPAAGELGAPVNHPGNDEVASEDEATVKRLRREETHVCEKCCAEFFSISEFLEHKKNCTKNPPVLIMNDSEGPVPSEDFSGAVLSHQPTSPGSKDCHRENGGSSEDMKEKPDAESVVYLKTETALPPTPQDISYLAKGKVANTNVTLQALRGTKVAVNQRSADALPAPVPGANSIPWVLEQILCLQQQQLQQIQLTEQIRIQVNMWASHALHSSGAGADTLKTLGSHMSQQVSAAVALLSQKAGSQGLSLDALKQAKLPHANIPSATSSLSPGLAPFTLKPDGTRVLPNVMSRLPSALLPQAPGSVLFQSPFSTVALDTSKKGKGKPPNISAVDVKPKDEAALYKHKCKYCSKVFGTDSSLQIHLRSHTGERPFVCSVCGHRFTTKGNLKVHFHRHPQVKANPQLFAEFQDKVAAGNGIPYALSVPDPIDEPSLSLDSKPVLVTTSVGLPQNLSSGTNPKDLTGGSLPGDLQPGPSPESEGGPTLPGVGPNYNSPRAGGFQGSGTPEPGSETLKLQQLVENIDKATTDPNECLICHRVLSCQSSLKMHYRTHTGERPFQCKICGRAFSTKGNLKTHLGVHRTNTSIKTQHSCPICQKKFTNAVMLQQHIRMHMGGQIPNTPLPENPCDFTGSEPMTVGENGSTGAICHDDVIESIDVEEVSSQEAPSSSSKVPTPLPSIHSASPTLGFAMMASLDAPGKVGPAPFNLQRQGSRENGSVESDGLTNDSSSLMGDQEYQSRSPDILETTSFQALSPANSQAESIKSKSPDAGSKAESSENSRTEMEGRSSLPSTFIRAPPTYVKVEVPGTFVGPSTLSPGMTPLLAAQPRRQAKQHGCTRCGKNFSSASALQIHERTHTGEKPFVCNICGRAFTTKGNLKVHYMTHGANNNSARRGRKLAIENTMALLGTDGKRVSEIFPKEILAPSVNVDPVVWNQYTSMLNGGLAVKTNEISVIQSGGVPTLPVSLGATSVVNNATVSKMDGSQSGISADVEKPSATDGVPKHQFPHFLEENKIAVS
Technique: universal PBM
Form: double-stranded DNA, one strand shown
Matrix: in vitro
Tested at: 600 nM
Setting: 8-mer, flanks averaged, mean of replicates
Direction: higher = stronger binding
Quantity: E-score
AGCCCGAG: -0.256
AACCGATC: -0.129
AGGAAAAT: 0.166
CCTGGGTA: -0.267
ATTGCTAC: 0.172
CCTGCAGA: -0.0464
TTCTACAA: 0.171
GAGGGACC: -0.285
CAGATGCA: -0.0882
ACCATTGA: 0.103
GCCTTAGC: -0.139
ATTTGCCG: -0.0558
AAAATTTA: 0.333
AAGTGAAG: 0.201
AGTCCAAA: -0.0174
GATTAGCC: -0.0611
CAGATGGC: -0.157
CATACGGG: -0.171

Series 2
Target: RNA binding protein fox-1 homolog 2, RRM domain, GST-SBP tag (RBFOX2, Homo sapiens, UniProt O43251-10, residues 100-194)
Technique: RNA Bind-n-Seq
Form: RNA
Matrix: in vitro
Tested at: 365 nM
Setting: natural RNA segment, single round, ends assumed
Relative to: no-protein control
Direction: higher = stronger binding
Quantity: RBNS enrichment (R)
Construct (chain): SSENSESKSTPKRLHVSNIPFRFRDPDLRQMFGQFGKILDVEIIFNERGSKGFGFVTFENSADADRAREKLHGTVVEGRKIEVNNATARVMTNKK
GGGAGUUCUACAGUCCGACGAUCAUGGAGAUGUUGCGUUACUAUGGAGCUUACAUGAAAUGGGUAGCAUAUAGUUAAAGGUCGUGACAAAAACUAUAACAUAACCUUGGACUUUUUCCACGGGGUCCUUUUAUUGGAAUUCUCGGGUGCCAA: 0.985
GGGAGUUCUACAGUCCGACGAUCUUCCUACUGGCUGGGGUUUCUCCCUCACUCUGCCUCCCAAACACAAUAAAUACAUAGUUGCCCACCAGCCCAUGUCUUUAUUGUAUGUGGACCCUUCUGACUUAGGCAUUUGGAAUUCUCGGGUGCCAA: 0.358
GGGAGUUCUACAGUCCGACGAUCAAAUGCUUAAGGACAUGCUAGGGGAAAAAAAAGUAAAAUUGAAGUGCUAUUGCAGACAUGGCUGCAGUACUGUACCUUAUCAUUCUGAUGAAACUGAUUUGGAGCACCCUUGGAAUUCUCGGGUGCCAA: 0.948
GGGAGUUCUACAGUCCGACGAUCAGAGUCUCCCCAUUUUUUUUAACGCAACCCUUUCCCCUUUUUCCUACCCCACAGCUCUGUUCCAUGUAAGUUGCCAACAGUUUCACUGAACAGUGGGGUAUGUGAUGGUUUGGAAUUCUCGGGUGCCAA: 0.568
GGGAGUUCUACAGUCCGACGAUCUGUGAACCCCCUGCAGCCCUGUGAGGCCCCCCGAAGCCCUGUGAGGCCCCCCGAAGCCCUGUGAACCACCUGCUGCCCUGUGAGGCCCCCAAAGCCCUGUGAACUGCCUGUGGAAUUCUCGGGUGCCAA: 0.644
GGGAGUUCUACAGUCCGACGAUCGUUAUCUCCACUAACAUAUCCAAGAAUCUUUGUAGGACAAUUUCUCCACCUGCAAGGUCUUUCAGGUAGAACUCUUCUUUUAAGGCAAUUAGCCCAUUGCCAAAAGGUUUUGGAAUUCUCGGGUGCCAA: 0.433
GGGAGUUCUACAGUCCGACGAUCAUUUUUAAAAAGAGAGUGAAGGAACCAACACUGAUUUGUACAUAAUAAAAAUGUGUGUAUUAUAUAUAUAUAUUUUUUCCUCCUUGACAGUACUUGGUCACAAUAUCAAGUGGAAUUCUCGGGUGCCAA: 0.484
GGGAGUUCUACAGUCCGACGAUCAGCUGGAGCCGUAAUUCCGUGCCUGCCGCCGCAGCGCCGCCGACAACGCGGGUGCAGGGGGGCGCGGCUGGGCGGUGCAGCUCCGCCCGGCUCCGCCCCUGCAGCCCACAUGGAAUUCUCGGGUGCCAA: 0.343
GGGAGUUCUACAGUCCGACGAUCCAUUUUCGAAGGAGCAGUGUGACCUCCUGUGACCCGUGAAUGUGCCUCCAAGCGGCCCUGUGUGUUUGACAUGUGAAGCUAUUUGAUAUGCACCAGGUCUCAAGGUUCUCUGGAAUUCUCGGGUGCCAA: 0.326
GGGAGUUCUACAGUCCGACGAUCUUGUAUAAAAAUUUCUCAUCUUUUCAGACUUUUUUGUAAACCGCCCCCGAGUUGUGAAAGCUGCGACGUAGCAGUGACCUCAGCAGUCCCUAUGUUUUCCCCCUUUGAAAUGGAAUUCUCGGGUGCCAA: 0.746
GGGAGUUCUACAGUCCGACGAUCUGACUCUAAUAGGACUGUAUAUACUGUUUUAAGAAUGGGCUGAAAUCAGAAUGCCUGUUUGUGGUUUCAUAUGCAAUAAUAUAUUUUUUUAAAAAUGUGGACUUCAUAGGUGGAAUUCUCGGGUGCCAA: 2.02
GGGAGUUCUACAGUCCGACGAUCCCAAAUUUCACCCAUUCCUGACUUUGAAUCAAUUGCAGAAAUGCAGGUGUGUUACUUUGUUGAUCAAUAACUUUGGAACAAUUAUGGAUCAAUUCUAUGGUCACUCUGAAUGGAAUUCUCGGGUGCCAA: 0.494

Series 3
Target: Histone acetyltransferase KAT6A, winged helix 2, GST fusion (KAT6A, Homo sapiens, UniProt Q92794, residues 85-181)
Technique: protein binding microarray
Form: double-stranded DNA, one strand shown
Matrix: in vitro
Tested at: not given
Setting: 8-mer, flanks averaged, mean of 2 arrays, mostly near background
Relative to: not given
Direction: higher = stronger binding
Quantity: E-score
Target sequence (chain): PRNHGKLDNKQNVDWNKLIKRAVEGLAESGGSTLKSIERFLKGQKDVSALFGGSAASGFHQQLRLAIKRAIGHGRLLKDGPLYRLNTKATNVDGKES
AGGCGTTA: -0.142
ACCCACTA: 0.0342
TCTGCTCA: 0.0906
AAACCAAC: 0.139
ATAAGCCA: -0.114
GGGGCCAC: 0.0218
ACTCAAGG: 0.112
ATGCTGTG: 0.105
GCTGATCA: 0.0114
ACCCTGTC: 0.000385
CAGCAGCA: 0.0724
AAGCCCAG: 0.0246
ATGCACAT: -0.00381
ATGCTCGG: 0.196
ATTTCAGG: 0.0779
GGCCATAA: -0.0807

Series 4
Target: RING finger protein unkempt homolog, zinc fingers 1-6, GST-SBP tag (UNK, Homo sapiens, UniProt Q9C0B0, residues 30-357)
UniProt Q9C0B0, sequence (30-357, looked up): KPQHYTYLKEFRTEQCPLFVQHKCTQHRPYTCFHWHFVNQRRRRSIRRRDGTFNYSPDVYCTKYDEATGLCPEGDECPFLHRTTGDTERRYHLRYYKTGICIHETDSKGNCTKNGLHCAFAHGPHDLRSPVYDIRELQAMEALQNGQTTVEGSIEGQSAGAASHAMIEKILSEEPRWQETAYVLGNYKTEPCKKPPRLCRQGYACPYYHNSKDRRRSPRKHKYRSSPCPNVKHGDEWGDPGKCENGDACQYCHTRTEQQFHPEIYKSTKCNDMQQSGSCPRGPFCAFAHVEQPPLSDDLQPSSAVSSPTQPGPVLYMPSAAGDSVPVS
Technique: RNA Bind-n-Seq
Form: RNA
Matrix: in vitro
Tested at: not given
Setting: RNA with constant flanks, human and mouse sites, ends assumed
Relative to: input RNA pool
Direction: higher = stronger binding
Quantity: bound/input enrichment
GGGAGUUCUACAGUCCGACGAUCACUGACACCAUGAUUCAGACUCCUGGCCCCCUGCCAGCACCACAACUCACAUCCACUGUACUGCGGGAGAACAGUCGGCCCAUGGGAGACCAGAUUCAAGAACCUGAGUCUGAACAUGGUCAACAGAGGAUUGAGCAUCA: 0.15 ratio
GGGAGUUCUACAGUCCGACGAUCCCUCUGGAAGCCUUGCGCAGAGCUUACUUUGUAAUUGUUGGAGAAUAACUGCUGAAUUUUUAGCUGUUUUGAGUUGAUUCGCACCACUGCACCACAACUCAAUAUGAAAACUAUUUAACUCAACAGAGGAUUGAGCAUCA: 0.759 ratio
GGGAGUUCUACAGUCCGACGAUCGAAGUGGAGCCCAAAUUAGCCGCCUGGAUCCAAAAACUUAAUAGCUUUGGCUUAGAUGCCACAGGAACUUUCUUUUCUCGUUAUGGAGCAUCUCUUAAACUGCUUGAUUUUAGUAUCAUGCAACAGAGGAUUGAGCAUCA: 3.72 ratio
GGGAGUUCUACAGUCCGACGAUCCGCAGAAGAUUAAAGGGUGAAAAUGGGAUGGAGGAUUGUGUCAUGGCCCUAGAAACCUUGUUUAGUGUUCUGCUUUCUCUUUGCAGACUUAUGGCUCCCUACACACCUUUUCUCACUGAACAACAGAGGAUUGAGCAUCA: 0.166 ratio
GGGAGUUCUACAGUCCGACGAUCAUGGGCUUUGAUGCUGUUAUCCAUAAUCCUGACCCUCUCCCUGUUUUAACUGACACCUUGUUUCUGACUGUUACGGCGUCACUGACUUUGCCAUGGGACCAUAUCCAAAGCACAUUGCUGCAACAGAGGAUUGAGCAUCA: 0.173 ratio
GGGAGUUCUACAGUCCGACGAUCCGGGAUGACCAGACUCCCGGACUCCUCAGGCAGUGCCCUUUCCUCCCACUUUUCCUCCCCCAUAGCCACAGGCCUCUGCUCCUGCUCCUGCCUGCAUGUUCUCUCUGUUGUUGGAGCCUGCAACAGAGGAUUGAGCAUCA: 0.981 ratio
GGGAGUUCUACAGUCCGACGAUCGAAAAUAUAUUUAGUCGCAUAGUAGAUAUACAUGAACUUAGUGUAAAGUUACUGGGCCAUAUAGAAGAUACAGUAGAAAUGACAGAUGAAGGCAGUCCCCAUCCACUAGUAGGAAGCUGCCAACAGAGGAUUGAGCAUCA: 4.73 ratio
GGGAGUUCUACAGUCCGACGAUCAAGAACAUGCUCCUAUAAGAAGUAGUUUGAAUAGCCAACCACCCACAGAGGAAAAGGAAAUCAAGUUAAAAAAUAGACAUUCAUUGGAAAUAUCGUCUGCUCUGAAUAUGUUUAACAUUGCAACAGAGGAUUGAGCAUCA: 2.72 ratio
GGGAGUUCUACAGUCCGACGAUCUUCAACAGAAGAAAAGUAAUGGACUCCGAUGAAGACGACGCCGAUUACUAAGAGGACGCACUUAGACAGACUUCCGGAGCAGUGUCUAGGACAGUCACCACCUUGUAAAUGUUUACUUUGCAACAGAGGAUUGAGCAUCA: 0.12 ratio
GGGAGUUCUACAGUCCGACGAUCCAGGAAACCCUGGGAGAGUCUGGGAGUUUACUUCCAAAUAAAUUGAAUAAGUUGUUACAGAGGUUUCCUAACAAACCUUACCUCAGCUGAAAAUGGACAAGUAUUUUCAAUGACUGAAAUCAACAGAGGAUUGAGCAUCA: 0.261 ratio
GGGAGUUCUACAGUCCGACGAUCAUGGGUGGAUUAUUUUCUCGAUGGAGGACAAAACCUUCAACUGUAGAAGUUCUAGAAAGUAUAGAUAAGGAAAUUCAAGCAUUGGAAGAAUUUAGGGAAAAAAAUCAGAGAUUACAAAAACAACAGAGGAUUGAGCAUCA: 10.2 ratio

Excerpt of the above (series 2):
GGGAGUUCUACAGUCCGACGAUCAGAGUCUCCCCAUUUUUUUUAACGCAACCCUUUCCCCUUUUUCCUACCCCACAGCUCUGUUCCAUGUAAGUUGCCAACAGUUUCACUGAACAGUGGGGUAUGUGAUGGUUUGGAAUUCUCGGGUGCCAA: 0.568
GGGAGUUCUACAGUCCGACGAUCUGUGAACCCCCUGCAGCCCUGUGAGGCCCCCCGAAGCCCUGUGAGGCCCCCCGAAGCCCUGUGAACCACCUGCUGCCCUGUGAGGCCCCCAAAGCCCUGUGAACUGCCUGUGGAAUUCUCGGGUGCCAA: 0.644
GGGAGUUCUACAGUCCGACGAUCUUGUAUAAAAAUUUCUCAUCUUUUCAGACUUUUUUGUAAACCGCCCCCGAGUUGUGAAAGCUGCGACGUAGCAGUGACCUCAGCAGUCCCUAUGUUUUCCCCCUUUGAAAUGGAAUUCUCGGGUGCCAA: 0.746
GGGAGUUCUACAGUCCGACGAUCUUCCUACUGGCUGGGGUUUCUCCCUCACUCUGCCUCCCAAACACAAUAAAUACAUAGUUGCCCACCAGCCCAUGUCUUUAUUGUAUGUGGACCCUUCUGACUUAGGCAUUUGGAAUUCUCGGGUGCCAA: 0.358
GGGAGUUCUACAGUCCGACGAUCGUUAUCUCCACUAACAUAUCCAAGAAUCUUUGUAGGACAAUUUCUCCACCUGCAAGGUCUUUCAGGUAGAACUCUUCUUUUAAGGCAAUUAGCCCAUUGCCAAAAGGUUUUGGAAUUCUCGGGUGCCAA: 0.433
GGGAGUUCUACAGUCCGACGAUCCCAAAUUUCACCCAUUCCUGACUUUGAAUCAAUUGCAGAAAUGCAGGUGUGUUACUUUGUUGAUCAAUAACUUUGGAACAAUUAUGGAUCAAUUCUAUGGUCACUCUGAAUGGAAUUCUCGGGUGCCAA: 0.494
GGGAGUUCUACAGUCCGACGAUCUGACUCUAAUAGGACUGUAUAUACUGUUUUAAGAAUGGGCUGAAAUCAGAAUGCCUGUUUGUGGUUUCAUAUGCAAUAAUAUAUUUUUUUAAAAAUGUGGACUUCAUAGGUGGAAUUCUCGGGUGCCAA: 2.02
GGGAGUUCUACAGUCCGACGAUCCAUUUUCGAAGGAGCAGUGUGACCUCCUGUGACCCGUGAAUGUGCCUCCAAGCGGCCCUGUGUGUUUGACAUGUGAAGCUAUUUGAUAUGCACCAGGUCUCAAGGUUCUCUGGAAUUCUCGGGUGCCAA: 0.326
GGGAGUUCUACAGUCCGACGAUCAUUUUUAAAAAGAGAGUGAAGGAACCAACACUGAUUUGUACAUAAUAAAAAUGUGUGUAUUAUAUAUAUAUAUUUUUUCCUCCUUGACAGUACUUGGUCACAAUAUCAAGUGGAAUUCUCGGGUGCCAA: 0.484
